Results collected from several papers.
Lines come from different studies, so protocols differ. Several values in a cell are separate wells, animals, samples, runs or records. ≈ marks a conversion by molar mass, not a printed value.
Chain of UniProt Q8IY84 (whole entry, looked up): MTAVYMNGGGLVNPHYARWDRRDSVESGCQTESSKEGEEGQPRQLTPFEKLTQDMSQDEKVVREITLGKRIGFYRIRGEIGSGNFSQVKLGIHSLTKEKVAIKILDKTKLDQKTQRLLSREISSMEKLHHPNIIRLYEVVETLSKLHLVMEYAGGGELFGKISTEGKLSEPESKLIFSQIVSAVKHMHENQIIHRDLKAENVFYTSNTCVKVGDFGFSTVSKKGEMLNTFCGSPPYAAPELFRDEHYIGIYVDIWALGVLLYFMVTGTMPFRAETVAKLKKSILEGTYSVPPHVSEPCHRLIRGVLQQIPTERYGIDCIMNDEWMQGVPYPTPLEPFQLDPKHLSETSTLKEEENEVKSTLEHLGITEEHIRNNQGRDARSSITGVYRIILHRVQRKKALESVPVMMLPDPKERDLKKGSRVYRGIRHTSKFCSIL
Chain of UniProt Q8NE63 (whole entry, looked up): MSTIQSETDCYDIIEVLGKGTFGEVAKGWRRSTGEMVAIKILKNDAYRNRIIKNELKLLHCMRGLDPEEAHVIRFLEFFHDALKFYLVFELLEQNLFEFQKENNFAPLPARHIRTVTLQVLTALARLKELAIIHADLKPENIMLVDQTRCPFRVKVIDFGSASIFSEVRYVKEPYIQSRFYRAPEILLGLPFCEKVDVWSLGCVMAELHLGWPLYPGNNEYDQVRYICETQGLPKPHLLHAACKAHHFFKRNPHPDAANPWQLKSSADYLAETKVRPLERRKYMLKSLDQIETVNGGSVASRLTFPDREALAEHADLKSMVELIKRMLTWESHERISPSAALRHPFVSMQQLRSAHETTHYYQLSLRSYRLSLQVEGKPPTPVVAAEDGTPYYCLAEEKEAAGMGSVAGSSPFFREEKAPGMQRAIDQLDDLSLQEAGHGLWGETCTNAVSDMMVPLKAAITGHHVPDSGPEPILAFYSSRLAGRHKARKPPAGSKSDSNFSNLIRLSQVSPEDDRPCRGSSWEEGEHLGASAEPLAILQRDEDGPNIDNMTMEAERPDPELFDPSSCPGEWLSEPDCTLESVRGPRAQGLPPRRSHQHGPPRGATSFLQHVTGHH
Chain of UniProt Q02750 (whole entry, looked up): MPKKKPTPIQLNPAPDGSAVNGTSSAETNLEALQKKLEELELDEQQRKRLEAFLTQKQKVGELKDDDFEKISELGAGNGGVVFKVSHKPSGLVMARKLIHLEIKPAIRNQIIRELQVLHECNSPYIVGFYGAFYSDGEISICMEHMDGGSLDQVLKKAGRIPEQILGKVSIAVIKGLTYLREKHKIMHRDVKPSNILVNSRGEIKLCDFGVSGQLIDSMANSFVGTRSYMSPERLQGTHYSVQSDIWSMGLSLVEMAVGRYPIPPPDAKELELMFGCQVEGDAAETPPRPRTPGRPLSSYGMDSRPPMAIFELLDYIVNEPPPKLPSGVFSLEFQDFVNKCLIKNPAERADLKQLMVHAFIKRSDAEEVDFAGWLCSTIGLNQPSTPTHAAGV
Chain of UniProt Q8IVW4 (whole entry, looked up): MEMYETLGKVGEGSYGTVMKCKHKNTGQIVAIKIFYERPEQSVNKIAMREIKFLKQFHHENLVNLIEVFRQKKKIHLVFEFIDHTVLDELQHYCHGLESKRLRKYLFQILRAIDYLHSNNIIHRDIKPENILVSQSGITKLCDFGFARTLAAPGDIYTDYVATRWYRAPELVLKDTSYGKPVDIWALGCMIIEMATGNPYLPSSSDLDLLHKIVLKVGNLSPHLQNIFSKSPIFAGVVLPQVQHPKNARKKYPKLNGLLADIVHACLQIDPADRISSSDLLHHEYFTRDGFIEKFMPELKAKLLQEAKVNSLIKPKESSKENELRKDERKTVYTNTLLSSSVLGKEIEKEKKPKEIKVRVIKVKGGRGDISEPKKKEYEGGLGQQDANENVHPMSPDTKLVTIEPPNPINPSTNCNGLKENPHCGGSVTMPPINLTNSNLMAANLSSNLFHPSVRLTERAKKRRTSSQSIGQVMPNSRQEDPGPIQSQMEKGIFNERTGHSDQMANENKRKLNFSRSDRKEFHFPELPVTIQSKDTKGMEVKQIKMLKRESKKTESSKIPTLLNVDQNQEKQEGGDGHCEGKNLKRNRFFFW

COc1ccn2c(Nc3ccccc3F)c(-c3ccncn3)nc2c1 — EC50 (Leishmania infantum; parasite growth; intracellular, amastigote): 10 µM
O=C(Nc1ccc(Oc2ccc3nc(NC(=O)c4ccccc4)[nH]c3c2)cc1)Nc1cc(C(F)(F)F)ccc1F — EC50 (Trypanosoma brucei; parasite growth): 0.794 µM
Cc1ccc(N(c2ccc(NC(=O)CN(C)c3ccccc3N3CCCC3=O)cc2)C(C)C)cc1 — EC90 (Plasmodium falciparum; parasite growth, SYBR Green; DD2; 72 h, blood stage): 0.009 µM
CC(C)[C@@H]1NC(=O)[C@@H](CCCNC(=N)N)NC(=O)[C@H]([C@@H](C)O)NC(=O)[C@@H](C)NC(=O)[C@H](Cc2ccccc2)NC(=O)[C@@H](Cc2ccccc2)NC1=O — IC90 (Balamuthia mandrillaris; parasite growth, ATP luminescence): 12.5 µM
COc1ccc(C(=O)CSc2nc(C)cc(C)c2C#N)cc1 — EC50 (Trypanosoma brucei; parasite growth, resazurin; RHODESIENSE): 60.5 µM
CC1(C)CC[C@]2(NC(=O)NCc3cccnc3)CC[C@]3(C)C(=CC[C@@H]4[C@@]5(C)CC[C@@H]6OC(C)(C)OC[C@@]6(C)[C@@H]5CC[C@]43C)[C@@H]2C1 — inhibition (Leishmania mexicana; parasite growth, resazurin; 50 µM, amastigote): 95%
CN[C@H](CC(C)C)C(=O)N[C@H]1C(=O)N[C@@H](CC(N)=O)C(=O)N[C@H]2C(=O)N[C@H]3C(=O)N[C@H](C(=O)N[C@H](C(=O)O)c4cc(O)cc(O)c4-c4cc3ccc4O)[C@H](O)c3ccc(c(Cl)c3)Oc3cc2cc(c3O[C@@H]2O[C@H](CO)[C@@H](O)[C@H](O)[C@H]2O[C@H]2C[C@](C)(N)[C@H](O)[C@H](C)O2)Oc2ccc(cc2Cl)[C@H]1O — MIC90 (Staphylococcus epidermidis; microbial growth; clinical isolate): 2 µg/mL (≈ 1.38 µM)
C=CCOC(=O)[C@]12CCC(C)(C)C[C@H]1C1=CC[C@@H]3[C@@]4(C)CC[C@H](O)[C@@](C)(CO)[C@@H]4CC[C@@]3(C)[C@]1(C)CC2 — inhibition (Leishmania mexicana; parasite growth, resazurin; 50 µM, amastigote): 99.9%
CCCCC(=O)Nc1ccc(-c2ccc3ncn(CCC)c(=O)c3c2)cn1 — remaining binding (NIM1K (Homo sapiens, UniProt Q8IY84); binding, competition with immobilised ligand; 0.5 µM): 100%
CC(C)[C@@H]1NC(=O)[C@@H](CCCCN)NC(=O)[C@H]([C@@H](C)O)NC(=O)[C@@H](CCCCN)NC(=O)[C@H](Cc2ccccc2)NC(=O)[C@@H](Cc2ccccc2)NC1=O — IC50 (Balamuthia mandrillaris; parasite growth, ATP luminescence; 72 h): ≤ 5 µM
Fc1ccc(Nc2c(-c3ncccc3F)nc3ccccn23)cc1 — IC50 (Leishmania infantum; parasite growth; intracellular, amastigote): 12.7 µM and 34.6 µM
O=c1cc(-c2ccc(O)c(O)c2)oc2cc(O)cc(O)c12 — inhibition (Helicobacter pylori; microbial growth, broth dilution; 0.24 µg/mL): 31.8%
C[C@H](O)[C@H]1OC(C[C@@H]2OC[C@@]3(C)[C@@H]4CC[C@]5(C)[C@H](CC=C6[C@@H]7CC(C)(C)CC[C@]7(C(=O)O)CC[C@]65C)[C@@]4(C)CC[C@@H]3O2)[C@@H](O)[C@@H]1O (stereo partly drawn) — inhibition (Leishmania mexicana; parasite growth, resazurin; 50 µM, amastigote): 97.8%
CCS(=O)(=O)Oc1ccc(C=NNC(=O)CSc2nc3ccc(Cl)cc3c(=O)n2-c2ccccc2)cc1OC — inhibition zone (Bacillus cereus; microbial growth, well diffusion; 20 µg/mL): 3 mm
Oc1cc(O)c2c(c1)O[C@H](c1cc(O)c(O)c(O)c1)[C@@H](O)C2 — inhibition zone (Streptococcus mutans; microbial growth, disc diffusion; 500 µg/disc): 12.5 mm
COc1ccc(-c2cc(=O)c3c(O)cc(O[C@@H]4O[C@H](CO)[C@@H](O)[C@H](O)[C@H]4O)cc3o2)cc1O — inhibition (Helicobacter pylori; microbial growth, broth dilution; 1.95 µg/mL): 100%
C=C/C=C(\C)CC[C@H]1C[C@@H](O)CC(=O)O1 — MIC (Salmonella enterica; microbial growth, broth dilution; ATCC14028 TYPHIMURIUM): 128 µg/mL (≈ 609 µM)
CCN(c1ccc(F)cc1)c1c(-c2ccccn2)nc2ccccn12 — IC50 (Leishmania infantum; parasite growth; intracellular, amastigote): 1.29 µM
COc1cc(-c2cc(=O)c3c(O)cc(O)cc3o2)ccc1O — inhibition (Helicobacter pylori; microbial growth, broth dilution; 0.48 µg/mL): 16.1%
Cc1cc(C)c(C#N)c(SCC(=O)c2cccs2)n1 — EC50 (Leishmania infantum; parasite growth; mouse Macrophage; intracellular, amastigote): > 64 µM
CN(Cc1ccc(C(C)(C)C)cc1)Cc1cccc2ccccc12 — inhibition zone (Trichophyton mentagrophytes; microbial growth, disc diffusion; ATCC18748; 0.512 µg/mL, 72 h): ≥ 55 mm
CC[C@H]1OC(=O)[C@H](C)[C@@H](O[C@H]2C[C@@](C)(OC)[C@@H](O)[C@H](C)O2)[C@H](C)[C@@H](O[C@@H]2O[C@H](C)C[C@H](N(C)C)[C@H]2O)[C@](C)(OC)C[C@@H](C)C(=O)[C@H](C)[C@@H](O)[C@]1(C)O — inhibition (Helicobacter pylori; microbial growth, broth dilution; 125 µg/mL): 100%
CC(C)[C@@H]1NC(=O)[C@@H](CO)NC(=O)[C@@H](CCCNC(=N)N)NC(=O)[C@H](Cc2ccccc2)NC1=O — IC90 (Balamuthia mandrillaris; parasite growth, ATP luminescence): > 16 µg/mL
CN(Cc1ccc(C2(C(F)(F)F)CC2)cc1)Cc1cccc2ccccc12 — inhibition zone (Trichophyton mentagrophytes; microbial growth, disc diffusion; ATCC18748; 0.0005 µg/mL, 72 h): 0 mm
CC1(C)CC[C@]2(C(=O)O)CC[C@]3(C)C(=CC[C@@H]4[C@@]5(C)CC[C@H](OC(=O)CCC(=O)O)[C@@](C)(COC(=O)CCC(=O)O)[C@@H]5CC[C@]43C)[C@@H]2C1 — inhibition (Leishmania mexicana; parasite growth, resazurin; 50 µM, amastigote): 96.7%
CC(C)[C@@H]1NC(=O)[C@@H](CCCNC(=N)N)NC(=O)[C@H]([C@@H](C)O)NC(=O)[C@@H](CCCN)NC(=O)[C@H](Cc2ccccc2)NC(=O)[C@@H](C)NC1=O — IC90 (Balamuthia mandrillaris; parasite growth, ATP luminescence): > 20 µM
Cc1cc(C)c(C#N)c(SCC(=O)c2ccc(F)cc2F)n1 — EC50 (Leishmania infantum; parasite growth; mouse Macrophage; intracellular, amastigote): 32 µM
CC(=O)OC[C@@]1(C)[C@@H]2CC[C@]3(C)[C@H](CC=C4[C@@H]5CC(C)(C)CC[C@]5(NC(=O)N5CCN(C)CC5)CC[C@]43C)[C@@]2(C)CC[C@@H]1O[C@@H]1OC[C@H](OC(C)=O)[C@H](OC(C)=O)[C@H]1O[C@@H]1O[C@@H](C)[C@H](OC(C)=O)[C@@H](OC(C)=O)[C@H]1OC(C)=O — inhibition (Leishmania mexicana; parasite growth, resazurin; 50 µM, amastigote): 98.3%
N#Cc1cccnc1SCC(=O)c1ccc(F)cc1 — EC50 (Leishmania infantum; parasite growth; mouse Macrophage; intracellular, amastigote): 40.7 µM
C[S+]([O-])c1ccc(-c2c(-c3ccccn3)nc3n2CCC3)cc1 (stereo not drawn) — IC50 (Leishmania infantum; parasite growth; intracellular, amastigote): 33.2 µM and 12.7 µM
COc1cc(-c2cncc3c2CN(C)Cc2cc(N4CCNCC4)ccc2-3)cc(OC)c1OC — remaining activity (CDKL3 (Homo sapiens, UniProt Q8IVW4); enzyme activity, inhibitor; 1 µM): 113%
O=c1cc(-c2ccc(O)cc2)oc2cc(O)cc(O)c12 — inhibition (Helicobacter pylori; microbial growth, broth dilution; 15.63 µg/mL): 100%
Cc1cc(C)c(C#N)c(SCC(=O)c2ccc(Cl)cc2Cl)n1 — EC50 (Leishmania infantum; parasite growth; mouse Macrophage; intracellular, amastigote): 6.19 µM
COc1ccnc(-c2nc3ccc(OC)cn3c2Nc2ccc(F)cc2)c1 — IC50 (Leishmania infantum; parasite growth; intracellular, amastigote): 0.79 µM and 2.16 µM
C[C@@H]1O[C@@H](C[C@@H]2OC[C@@]3(C)[C@@H]4CC[C@]5(C)[C@H](CC=C6[C@@H]7CC(C)(C)CC[C@]7(C(=O)O)CC[C@]65C)[C@@]4(C)CC[C@@H]3O2)[C@H](O)[C@H](O)[C@H]1O — inhibition (Leishmania mexicana; parasite growth, resazurin; 50 µM, amastigote): 97.6%
Cc1cc(C)c(C#N)c(NCC(=O)c2ccc(F)cc2)n1 — EC50 (Leishmania infantum; parasite growth; mouse Macrophage; intracellular, amastigote): > 64 µM
O=C(Nc1n[nH]c2nc(-c3ccc(O)cc3)c(Br)cc12)C1CC1 — EC50 (Trypanosoma brucei; parasite growth): 0.398 µM
COC(=O)c1ccc(O)cc1 — inhibition (Helicobacter pylori; microbial growth, broth dilution; 0.48 µg/mL): 41.4%
CC1(C)CC[C@]2(C(=O)O)CC[C@]3(C)C(=CC[C@@H]4[C@@]5(C)CC[C@@H]6O[C@H]([C@H](O)[C@@H](O)[C@H](O)[C@H](O)CO)OC[C@@]6(C)[C@@H]5CC[C@]43C)[C@@H]2C1 — inhibition (Leishmania mexicana; parasite growth, resazurin; 50 µM, amastigote): 96.2%
CN(c1ccc(NC(=O)Nc2ccc(OC(F)(F)F)cc2)cc1)c1ccnc(Nc2cccc(S(N)(=O)=O)c2)n1 — EC50 (Trypanosoma brucei; parasite growth): 0.251 µM
CC1(C)CC[C@]2(NC(=O)N3CCCNCC3)CC[C@]3(C)C(=CC[C@@H]4[C@@]5(C)CC[C@@H]6OC(C)(C)OC[C@@]6(C)[C@@H]5CC[C@]43C)[C@@H]2C1 — inhibition (Leishmania mexicana; parasite growth, resazurin; 50 µM, amastigote): 95.9%
Cc1ccc2nc(-c3ccccc3)cn2c1 — IC50 (Leishmania infantum; parasite growth; intracellular, amastigote): > 64 µM
COc1cc([C@H]2OC[C@H]3[C@@H]2CO[C@@H]3c2cc(OC)c(O)c(OC)c2)cc(OC)c1O — inhibition (Helicobacter pylori; microbial growth, broth dilution; 7.81 µg/mL): 100%
CCc1ccc(C(=O)CSc2nc(C)cc(C)c2C#N)cc1 — EC50 (Leishmania infantum; parasite growth; mouse Macrophage; intracellular, amastigote): > 64 µM
CC(C)[C@@H]1NC(=O)[C@@H](CCCNC(=N)N)NC(=O)[C@H]([C@@H](C)O)NC(=O)[C@@H](CCCN)NC(=O)[C@H](Cc2ccccc2)NC(=O)[C@@H](Cc2ccc(O)cc2)NC1=O — IC50 (Balamuthia mandrillaris; parasite growth, ATP luminescence): > 20 µM
CC[C@H]1OC(=O)[C@H](C)[C@@H](O[C@H]2C[C@@](C)(OC)[C@@H](O)[C@H](C)O2)[C@H](C)[C@@H](O[C@@H]2O[C@H](C)C[C@H](N(C)C)[C@H]2O)[C@](C)(O)C[C@@H](C)/C(=N\OCOCCOC)[C@H](C)[C@@H](O)[C@]1(C)O — MIC90 (Streptococcus viridans; microbial growth; clinical isolate): 2 µg/mL (≈ 2.39 µM)
O=C(O[C@H]1CN[C@H](C#Cc2cc3ncnc(Nc4ccc(OCc5cccc(F)c5)c(Cl)c4)c3s2)C1)N1CCOCC1 — EC50 (Trypanosoma brucei; parasite growth): 2 µM
CC(C)(C)OC(=O)N[C@H]1CCN(c2cc(C(=O)NCC(=O)O)ccc2NC(=O)c2cc(Br)c(Br)[nH]2)C1 — MIC (Acinetobacter baumannii; microbial growth, broth dilution; ATCC19606): > 32 µg/mL
Cc1cc([C@@H](C)Nc2ccccc2C(=O)O)c2nc(N3CCC(F)(F)CC3)c(C#N)c(=O)n2c1 — remaining binding (MAP2K1 (Homo sapiens, UniProt Q02750); binding, competition with immobilised ligand; 1 µM): 76%
CCn1c(-c2nonc2N)nc2c(C#CC(C)(C)O)nc(OC[C@H](N)c3ccccc3)cc21 — EC50 (Trypanosoma brucei; parasite growth): 3.16 µM
Cc1cc(C)c(C#N)c(SCC(=O)c2ccsc2)n1 — EC50 (Leishmania infantum; parasite growth; mouse Macrophage; intracellular, amastigote): > 64 µM
C=CC(=O)N1CCC(COCC(=O)N2CCN(c3nc(-c4cnc(N)nc4C(F)F)nc(N4CCOC[C@@H]4C)n3)CC2)CC1 — remaining binding (HIPK4 (Homo sapiens, UniProt Q8NE63); binding, competition with immobilised ligand; 1 µM): 100%
COc1ccc2nc(-c3ccccn3)c(N(C)c3ccc(F)cc3)n2c1 — IC50 (Leishmania infantum; parasite growth; intracellular, amastigote): 0.59 µM and 1.29 µM
COc1cccc(-n2ncc3c(N/N=C/c4ccncc4)ncnc32)c1 — EC50 (Trypanosoma brucei; parasite growth): 0.398 µM

Excerpt of the above:
CN[C@H](CC(C)C)C(=O)N[C@H]1C(=O)N[C@@H](CC(N)=O)C(=O)N[C@H]2C(=O)N[C@H]3C(=O)N[C@H](C(=O)N[C@H](C(=O)O)c4cc(O)cc(O)c4-c4cc3ccc4O)[C@H](O)c3ccc(c(Cl)c3)Oc3cc2cc(c3O[C@@H]2O[C@H](CO)[C@@H](O)[C@H](O)[C@H]2O[C@H]2C[C@](C)(N)[C@H](O)[C@H](C)O2)Oc2ccc(cc2Cl)[C@H]1O — MIC90 (Staphylococcus epidermidis; microbial growth; clinical isolate): 2 µg/mL (≈ 1.38 µM)
C=CCOC(=O)[C@]12CCC(C)(C)C[C@H]1C1=CC[C@@H]3[C@@]4(C)CC[C@H](O)[C@@](C)(CO)[C@@H]4CC[C@@]3(C)[C@]1(C)CC2 — inhibition (Leishmania mexicana; parasite growth, resazurin; 50 µM, amastigote): 99.9%
CCCCC(=O)Nc1ccc(-c2ccc3ncn(CCC)c(=O)c3c2)cn1 — remaining binding (NIM1K (Homo sapiens, UniProt Q8IY84); binding, competition with immobilised ligand; 0.5 µM): 100%
CC(C)[C@@H]1NC(=O)[C@@H](CCCCN)NC(=O)[C@H]([C@@H](C)O)NC(=O)[C@@H](CCCCN)NC(=O)[C@H](Cc2ccccc2)NC(=O)[C@@H](Cc2ccccc2)NC1=O — IC50 (Balamuthia mandrillaris; parasite growth, ATP luminescence; 72 h): ≤ 5 µM
Fc1ccc(Nc2c(-c3ncccc3F)nc3ccccn23)cc1 — IC50 (Leishmania infantum; parasite growth; intracellular, amastigote): 12.7 µM and 34.6 µM
O=c1cc(-c2ccc(O)c(O)c2)oc2cc(O)cc(O)c12 — inhibition (Helicobacter pylori; microbial growth, broth dilution; 0.24 µg/mL): 31.8%
C[C@H](O)[C@H]1OC(C[C@@H]2OC[C@@]3(C)[C@@H]4CC[C@]5(C)[C@H](CC=C6[C@@H]7CC(C)(C)CC[C@]7(C(=O)O)CC[C@]65C)[C@@]4(C)CC[C@@H]3O2)[C@@H](O)[C@@H]1O (stereo partly drawn) — inhibition (Leishmania mexicana; parasite growth, resazurin; 50 µM, amastigote): 97.8%
